Measurements of several laboratories.
Parts stem from different laboratories: compare values within a part only. Positions count from the first letter of the parent shown.

Set 1 — target: CCNE2, cyclin fold, Cln2 fusion (human); technique: yeast growth competition, sequencing; medium: yeast; setting: weak parent motif; relative to: not given; reading: higher = stronger binding
Starting sequence: RB1 docking peptide (human); PKPLKKLRFDIEG; partner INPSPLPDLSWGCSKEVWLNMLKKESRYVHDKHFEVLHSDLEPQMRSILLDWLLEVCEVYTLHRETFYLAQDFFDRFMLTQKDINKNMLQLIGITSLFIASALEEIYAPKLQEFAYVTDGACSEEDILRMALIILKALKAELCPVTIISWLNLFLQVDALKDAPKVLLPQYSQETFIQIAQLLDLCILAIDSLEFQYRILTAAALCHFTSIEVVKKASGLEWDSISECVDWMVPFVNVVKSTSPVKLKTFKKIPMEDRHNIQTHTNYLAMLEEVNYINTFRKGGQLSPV
| Substitution | normalised enrichment score |
| --- | --- |
| G13H | 0.404 |
| K2Y | 0.982 |
| K6N | 0.129 |
| I11P | 0.328 |
| P1N | 0.112 |
| P3C | 1.75 |
| L4S | 1.18 |
| K5A | 0.0867 |
| L7Y | -0.0524 |
| K6M | 0.206 |
| F9Y | -0.525 |
| L4H | 0.314 |
| L4N | 0.843 |
| K5Y | 0.187 |
| P3L | 0.692 |
| K6Q | -1.12 |
| P3S | 1.84 |
| D10H | 1.13 |
| P1W | 1.39 |
| D10C | -0.233 |
| P3H | -0.389 |
| K5R | 0.215 |
| K6P | 0.365 |
| K2L | 0.552 |
| F9P | -0.129 |

Set 2 — technique: protein-binding microarray; molecule type: double-stranded DNA, one strand shown; medium: in vitro; concentration: 250 nM; setting: 60-bp whole probe; with: salmon DNA 0.4 mg/ml; relative to: random background probes; reading: higher = stronger binding; constant ends, left off below: GCCTAGCAC … GTCTTGATTCGCTTGACGCTGCTG
Target: Interferon regulatory factor 5, full length, phosphomimetic (IRF5, Homo sapiens, UniProt Q13568-2, residues 1-514, K96S/S451D/S453D/S456D/S462D)
| Strand | log fluorescence [z-score] |
| --- | --- |
| TCATGATTGGTTGAACAACTGTGCTAG | 0.214 |
| AACGATCTCAGACTGGAGACGTGCTAG | -0.354 |
| GACGGTTTCCTATCCCTGACGTGCTAG | 0.602 |
| TTGGGTTTCCTACTGCTTTAGTGCTAG | 0.269 |
| GACGGTTTCCTTCTCTTGACGTGCTAG | 1.11 |
| TTAGGTATCGGTTTAGGTTAGTGCTAG | 8.25 |
| TCATGCCTCATCTTGCAGACTGTGCTA | -0.172 |
| GAGGGTCTCCTTATCCTGACGTGCTAG | -0.499 |
| TTAGGACTGGGTCTCCGTTAGTGCTAG | -0.481 |
| TCAACACTAATTTTCATACTGTGCTAG | 1.32 |
| CTCACTCTAATCTCACTCTGTGTGCTA | 0.464 |
| TCAAGTCTCAACCCCCAAACTGTGCTA | -0.0219 |
| TTAGGTATCGACTAGCGGTTAGTGCTA | 3.76 |
| TCATGCCTATTTTTCACACTGTGCTAG | 0.622 |
| GACGGTTTCCAACTGCTGACGTGCTAG | 0.2 |
| GCCGATATCGGGTTTCGAGACGTGCTA | 4.5 |
| TTAGGACTGCTTATTCTTTAGTGCTAG | 0.161 |
| TTAGGTTTCCTTCTCCTCTAGTGCTAG | 0.998 |
| TTAGGTATCGGCACTGGGTTAGTGCTA | 1.78 |
| GACGGTTTGGGTCTCGGGACGTGCTAG | -0.191 |
| GACGGTCTAGGTATCGGGACGTGCTAG | 0.466 |
| TTAGGACTGGACTTGCGGTTAGTGCTA | 0.512 |

Set 3 — target: OGT, full length, His-tagged (human); technique: phage display, sequencing; medium: in vitro; concentration: 1 µg OGT; relative to: input library; reading: higher = stronger binding; starting sequence: peptide; GDFPVMFMPKYSIIY
Setting: single substitutions, 15-mer displayed peptide, unchanged parent 5.27
| Substitution | fold enrichment [fold] |
| --- | --- |
| GDFPVSFMPKYSIIY [M6S] | 6.83 |
| GDKPVMFMPKYSIIY [F3K] | 2.43 |
| GDFPVMFMNKYSIIY [P9N] | 2.2 |
| GDFPVMFMPKYPIIY [S12P] | 7.57 |
| GDFPVMFMPKYSIFY [I14F] | 1.84 |
| DDFPVMFMPKYSIIY [G1D] | 6.64 |
| GDFPVMFMPKYSIIV [Y15V] | 7.35 |
| GDFPVMFMPKYRIIY [S12R] | 3.63 |
| GDFPVMFMPKYSIIG [Y15G] | 0.886 |
| GDFPVMFMPKYSIAY [I14A] | 0.668 |
| GDLPVMFMPKYSIIY [F3L] | 4.54 |
| GDFPVMFMPKSSIIY [Y11S] | 1.07 |
| GDFPVMFMPKYEIIY [S12E] | 5.04 |
| NDFPVMFMPKYSIIY [G1N] | 7.17 |
| GDFPTMFMPKYSIIY [V5T] | 8.13 |
| GDFPVMFMPKYSVIY [I13V] | 1.29 |
| GDFPVMFMPKPSIIY [Y11P] | 1.11 |
| GLFPVMFMPKYSIIY [D2L] | 6.54 |
| FDFPVMFMPKYSIIY [G1F] | 7.3 |

Set 4 — technique: protein binding microarray; molecule type: double-stranded DNA, one strand shown; medium: in vitro; concentration: not given; relative to: not given; reading: higher = stronger binding
Target: Histone acetyltransferase KAT6A, winged helix 2, GST fusion (KAT6A, Homo sapiens, UniProt Q92794, residues 85-181)
Setting: 8-mer, flanks averaged, mean of 2 arrays, mostly near background
Residues (chain): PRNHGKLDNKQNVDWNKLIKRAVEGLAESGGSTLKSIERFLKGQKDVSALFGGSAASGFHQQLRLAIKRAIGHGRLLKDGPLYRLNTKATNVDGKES
| Strand | E-score |
| --- | --- |
| ATTTATAC | 0.164 |
| CGACTCTA | -0.0832 |
| AAATGGAG | 0.0512 |
| CAGAACCG | 0.00867 |
| CTTTAAGC | 0.167 |
| GAGGGTAA | -0.141 |
| CCGGTCAG | 0.0446 |
| ATCATCAC | 0.0136 |
| CACGTAGA | -0.296 |
| CGTGTCAC | 0.115 |
| GGGCAATA | 0.069 |
| ATTACAAA | 0.149 |
| ATGATCGG | -0.0344 |
| AGGGACTA | -0.0926 |
| CTATACCA | -0.0921 |
| AATTTTTA | 0.0497 |
| CAGTTTGG | -0.0258 |
| GCAGTTAC | -0.0383 |
| CTCCCGCA | 0.206 |
| CGTCAGAA | -0.146 |
| AGCCTCGG | 0.0766 |
| CCACCCGC | 0.166 |
| GGTGGAAA | -0.0769 |
| ACCGAATG | 0.122 |
| CTCGTACA | -0.0204 |

Set 5 — technique: RNA Bind-n-Seq; molecule type: RNA; medium: in vitro; concentration: 365 nM; relative to: no-protein control; reading: higher = stronger binding
Target: RNA binding protein fox-1 homolog 2, RRM domain, GST-SBP tag (RBFOX2, Homo sapiens, UniProt O43251-10, residues 100-194)
Setting: natural RNA segment, single round, ends assumed
Constant ends, left off below: GGGAGUUCUACAGUCCGACGAUC … UGGAAUUCUCGGGUGCCAA
Residues (chain): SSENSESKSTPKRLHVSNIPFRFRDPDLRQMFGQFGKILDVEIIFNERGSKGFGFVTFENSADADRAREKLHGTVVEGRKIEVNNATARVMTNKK
| Strand | RBNS enrichment (R) |
| --- | --- |
| AUGCAAGCCAUUCAGUUAUCAGGACUGUGAAUUAACACUGUAUGAAUACAUUUCUGUACACCUUAUUGUUUGGCCAGAGGGCCACCAAGUGUACUUAUAUGUAAUCCUUA | 0.679 |
| UAUGAUGGCAGGUCCUCUGUUGCAAACUCAGUUCCAAAGUCACAGGAAGAAAGCAGAAAGUUCAACUUCCAAAGGGUUAGGACUCUCCACUCAAUGUCUUAGGUCAGGAG | 0.184 |
| ACUCAGCCUAGCUCACAGUGACUUGUGCUUCACUGUCAGGAUGCUCUGUAAAGUUCCUCAUCCCUGUGAAGCAGGGAAAGAACAGAGGUGCCUCUGGACUGCAGGAGAAA | 0.294 |
| CCCUCCCAGUGUUUGCAGAGCUGAGAUUUUCCUAAUGACCUAAGAAGAUACUGACGUAGAACGGUAUUAGAAAAUGACACUUCAAAAAUGUUGGAUACCAAAGCACGGUA | 1.48 |
| UGUUUUCUCUUCCCUUAGGUUGGGGCGGACCUUUGGAUAUAUAAAGGAAGCAGUUUUAGUAUCAGAAAAGAUUUAUUAGAAAAUUCUCACGCUGAACUGGUGUAGCAUGU | 4.31 |
| UGGGGAGCAGGGACGGCCAUGGGCACGCCUGGCCACGCUUUACCGACUGCUGACCCCCUGGGCCAGGUGAGGUUGGGGCCUGUGGGCCGCCAGUCCAUACGGUGCUGUCA | 0.342 |
| GAACACUGGCAACAUGGAAUGUAGAGAGCUGAUGUCUUCCCCCUCAUAGAGGCCAUUGGCUUCCUUUGUAUAAGGAGAGGGAGAAGUGAUUCUGGAAGGAGAAGUUGGUA | 1.1 |
| GACACCCCUGUACCUCUUCUCCAGGCCCAGCCUGCCACUGGGGAUGGGAAGAGGGGUUCUGGACUGUGCCUGCAUUAACUCCACGCUGGGGAGGGCGCGCUGCUGGUCCA | 0.806 |
| UGCGCCACCUUCACCUGGGUUUUCUUUCUUAAAGGAACAGGUUAGAGCAAGUGACCGUUGAGGACAGGUGAUGUGAAUGUUUGUUCUAGAUUUAAUUCAGUUUUCUGAAU | 0.528 |
| ACUCUGAGGAAACCUAGGAAAUCUCGGUGUACUAGGAAGUGAAUCCUGCAGGACAGCUGCACUCAGGGAUACGCCCAACACCAUGGCCAGGGUCAAAGGUGAAGAAAGCA | 0.953 |
| UUCAACGUUAUUUACAUGUAAAUAGACAAAAGGAAACAUUUGCCAAAAGCGGCAGAUCUUUACUGAAAGAGAGAGCAGCUGUUAUGCAACAUAUAGAAAAAUGUAUAGAU | 0.36 |
| CCCCUGCUGCUGCAGUGGUGUGAGUCGUUUCACGGCUGAUGUCCCUCGGGGGAUUAAAGGAUCUAAAGAGAAAAUGGCACCUGGUUGUCUUCGUGCUGUGUCUCAUGGGU | 0.269 |

Set 6 — technique: DHFR PCA, deep sequencing; medium: yeast; with: (+)-ABA 200 µM; relative to: wild-type fitted maximum; reading: higher = stronger binding
Target: ABI1, truncated, D143A, DHFR fusion (Arabidopsis thaliana)
Setting: methotrexate growth selection, single substitutions
Starting sequence: PYL1, truncated, DHFR fusion (Arabidopsis thaliana); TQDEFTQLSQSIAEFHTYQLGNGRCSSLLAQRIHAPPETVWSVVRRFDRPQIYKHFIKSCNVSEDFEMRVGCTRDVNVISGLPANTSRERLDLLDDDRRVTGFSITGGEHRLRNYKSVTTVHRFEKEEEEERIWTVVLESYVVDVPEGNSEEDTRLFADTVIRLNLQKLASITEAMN
| Substitution | relative binding score [%] |
| --- | --- |
| V161E | -1.68 |
| R155E | 54.4 |
| S26V | 88.7 |
| L8H | 86.5 |
| Q51G | 86.2 |
| T101R | -6.24 |
| T120I | 7.87 |
| R90K | 103 |
| F15Q | 70.5 |
| P50Y | 5.47 |
| P83K | 5.5 |
| V118H | 95.3 |
| R32G | 69.6 |
| G102R | 60.8 |
| G107E | 85.2 |

Mixed results
| Molecule | target | assay | test system | conditions | how to read | quantity | result |
| --- | --- | --- | --- | --- | --- | --- | --- |
| PhoQ, residues 284 288 289 292 302 303 SIHMAM | PhoP, residues 12 14 15 18 19 STWGI (Escherichia coli, UniProt P23836) | Sort-seq, measured: YFP reporter | E. coli | PhoQ-PhoP variant library, with: 10 µM Mg2+ | relative to: high Mg2+ state, higher = stronger signaling | fold induction | 2.79 |

Excerpt of the above (set 6):
| Substitution | relative binding score [%] |
| --- | --- |
| V161E | -1.68 |
| R155E | 54.4 |
| S26V | 88.7 |
| L8H | 86.5 |
| Q51G | 86.2 |
| T101R | -6.24 |
| T120I | 7.87 |
| R90K | 103 |
| F15Q | 70.5 |
| P50Y | 5.47 |
| P83K | 5.5 |
| V118H | 95.3 |
| R32G | 69.6 |
| G102R | 60.8 |
| G107E | 85.2 |
